Experimental data of several laboratories.
Compare with care: the assays were run in different laboratories.
PIK3CA H1047L: Phosphatidylinositol 4,5-bisphosphate 3-kinase catalytic subunit alpha isoform (PIK3CA, Homo sapiens, UniProt P42336, H1047L)
PIK3CA C420R: Phosphatidylinositol 4,5-bisphosphate 3-kinase catalytic subunit alpha isoform (PIK3CA, Homo sapiens, UniProt P42336, C420R)

Compound	target	assay	setting	how to read	remaining binding [%]
CCN1CCN(Cc2ccc(C(=O)Nc3ccc(C)c(NCc4cnc5[nH]ccc5c4OC)c3)cc2C(F)(F)F)CC1	PIK3CA H1047L	binding, competition with immobilised ligand	1 µM		76
CNC(=O)C1CCN(c2cc(C)c(F)cc2NC(=O)c2ccc(-c3cc(O)ccc3C)c(C)c2)CC1	PIK3CA H1047L	binding, competition with immobilised ligand	1 µM		100
Nc1ncc2c(n1)-c1c([nH]c3ccc(C4=CCOCC4)cc13)CCC2	PIK3CA C420R	binding, competition with immobilised ligand	1 µM		82
Cc1cnc2nc1Nc1cccc(c1)COC/C=C/COCc1cc(ccc1OCCN1CCOCC1)N2	PIK3CA (Homo sapiens, UniProt P42336, E545K)	binding	0.1 µM		74
C=CC(=O)N1CCc2ccc(-n3c(=O)ccc4cnc5ccc(-c6cnn(C)c6)cc5c43)cc21	PIK3CA (Homo sapiens, UniProt P42336, H1047Y)	KINOMEscan	1 µM	relative to: DMSO control	42
Cc1ccc(-c2c(/C=C(\C#N)C(=O)NC(C)C)n(CCCO)c3ncnc(N)c23)cc1	PIK3CA (Homo sapiens, UniProt P42336, E545A)	cell-free assay, competition with immobilised ligand	1 µM		100
CNC1C[S+]2CC[S+]3CC[S+](C1)[Ru-4]321([N]=C=S)[n]2c3ccc(OC)cc3c3c4c(c5cc(F)c[n+]1c5c32)C(=O)NC4=O (centres unmarked)	PIK3CA (Homo sapiens, UniProt P42336)	KinomeScan	0.1 µM	relative to: untreated	100
COc1c(Cl)cccc1Nc1c(-c2ccncc2C#C[C@@]2(C)CCCN2C(=O)/C=C/CN(C)C)[nH]c2c1C(=O)NCC2	PIK3CA C420R	binding, competition with immobilised ligand	3 µM		86
CC(C)=CC1OC(C)(C)C2C=C3C(=O)C(Cl)=CC(O)C3C3C(O)C4OC4C(=O)C132 (centres unmarked)	PIK3CA H1047L	cell-free assay, competition with immobilised ligand	10 µM		69
CC(=O)c1cnc(N)nc1N1CC[C@H]1c1nn2ccc(Cl)c2c(=O)n1-c1ccccc1	PIK3CA (Homo sapiens, UniProt P42336, E542K)	binding, competition with immobilised ligand	10 µM		83
C=CC(=O)N1CCCC(n2c(=O)c3ncccc3n(Cc3ccc(Oc4ccccc4)cc3)c2=O)C1 (centres unmarked)	PIK3CA H1047L	cell-free assay, competition with immobilised ligand	1 µM		56
